Measured values collected from several papers.
Compare with care: the assays were run in different laboratories. “And” joins repeats or separate records; there may be more than shown.
Sequence of UniProt Q16774 (whole entry, unmodified, looked up): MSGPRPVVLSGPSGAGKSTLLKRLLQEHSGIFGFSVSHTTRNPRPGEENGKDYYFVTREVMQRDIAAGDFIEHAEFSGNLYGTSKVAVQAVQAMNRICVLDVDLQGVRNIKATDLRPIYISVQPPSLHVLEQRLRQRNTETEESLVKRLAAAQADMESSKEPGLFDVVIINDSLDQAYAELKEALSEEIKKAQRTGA
Sequence of UniProt P51575 (whole entry, unmodified, looked up): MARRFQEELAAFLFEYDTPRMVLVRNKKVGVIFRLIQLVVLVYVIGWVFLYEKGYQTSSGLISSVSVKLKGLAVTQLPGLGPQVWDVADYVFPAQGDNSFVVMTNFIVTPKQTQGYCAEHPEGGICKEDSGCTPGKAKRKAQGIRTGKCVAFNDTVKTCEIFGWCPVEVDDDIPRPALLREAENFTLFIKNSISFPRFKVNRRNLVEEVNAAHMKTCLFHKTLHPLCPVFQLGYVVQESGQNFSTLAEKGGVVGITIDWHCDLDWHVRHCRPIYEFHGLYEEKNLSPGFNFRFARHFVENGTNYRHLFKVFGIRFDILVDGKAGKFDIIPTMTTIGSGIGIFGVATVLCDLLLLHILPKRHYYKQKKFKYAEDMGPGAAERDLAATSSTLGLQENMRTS
Sequence of UniProt Q62351 (whole entry, looked up): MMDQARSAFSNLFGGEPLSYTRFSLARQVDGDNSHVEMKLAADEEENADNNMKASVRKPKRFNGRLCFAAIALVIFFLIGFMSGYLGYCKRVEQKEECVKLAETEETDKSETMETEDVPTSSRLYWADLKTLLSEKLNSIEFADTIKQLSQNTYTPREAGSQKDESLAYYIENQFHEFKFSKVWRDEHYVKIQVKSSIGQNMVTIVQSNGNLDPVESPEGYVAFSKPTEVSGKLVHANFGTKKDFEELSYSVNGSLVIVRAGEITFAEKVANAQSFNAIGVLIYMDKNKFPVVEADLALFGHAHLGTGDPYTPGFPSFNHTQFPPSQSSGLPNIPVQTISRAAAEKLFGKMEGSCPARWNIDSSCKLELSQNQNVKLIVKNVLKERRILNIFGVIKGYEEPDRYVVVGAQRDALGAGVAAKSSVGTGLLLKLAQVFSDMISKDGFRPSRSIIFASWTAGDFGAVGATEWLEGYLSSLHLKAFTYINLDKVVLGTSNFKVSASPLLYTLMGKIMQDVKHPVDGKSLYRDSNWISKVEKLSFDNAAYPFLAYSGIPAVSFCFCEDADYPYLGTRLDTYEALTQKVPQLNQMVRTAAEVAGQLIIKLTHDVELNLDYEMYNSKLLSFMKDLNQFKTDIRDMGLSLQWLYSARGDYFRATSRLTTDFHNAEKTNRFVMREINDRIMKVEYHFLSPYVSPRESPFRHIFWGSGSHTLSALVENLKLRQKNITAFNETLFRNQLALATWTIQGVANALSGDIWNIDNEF
Sequence of UniProt P43088 (whole entry, looked up): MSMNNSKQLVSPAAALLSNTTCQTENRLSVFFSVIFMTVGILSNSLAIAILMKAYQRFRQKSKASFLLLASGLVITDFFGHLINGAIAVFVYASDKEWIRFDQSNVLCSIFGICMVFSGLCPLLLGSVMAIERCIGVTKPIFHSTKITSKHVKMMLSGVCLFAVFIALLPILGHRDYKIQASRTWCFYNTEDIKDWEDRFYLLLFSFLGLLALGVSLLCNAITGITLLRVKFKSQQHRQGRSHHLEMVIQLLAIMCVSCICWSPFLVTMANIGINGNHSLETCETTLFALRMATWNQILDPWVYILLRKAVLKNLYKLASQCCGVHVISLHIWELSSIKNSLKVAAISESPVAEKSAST
Sequence of UniProt P18031 (whole entry, looked up): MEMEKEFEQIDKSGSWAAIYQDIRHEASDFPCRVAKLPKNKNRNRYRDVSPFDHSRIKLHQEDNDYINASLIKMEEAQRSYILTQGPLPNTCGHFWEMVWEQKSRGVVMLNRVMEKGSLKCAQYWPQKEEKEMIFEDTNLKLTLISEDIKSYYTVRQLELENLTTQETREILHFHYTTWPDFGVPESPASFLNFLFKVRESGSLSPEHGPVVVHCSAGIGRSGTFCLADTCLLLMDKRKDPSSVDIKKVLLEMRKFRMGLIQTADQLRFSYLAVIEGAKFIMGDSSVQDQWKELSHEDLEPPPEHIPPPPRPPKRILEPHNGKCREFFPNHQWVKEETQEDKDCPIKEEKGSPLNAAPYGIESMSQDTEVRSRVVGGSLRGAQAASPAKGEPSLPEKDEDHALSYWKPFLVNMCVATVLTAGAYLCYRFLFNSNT
Sequence of UniProt P52497 (whole entry, looked up): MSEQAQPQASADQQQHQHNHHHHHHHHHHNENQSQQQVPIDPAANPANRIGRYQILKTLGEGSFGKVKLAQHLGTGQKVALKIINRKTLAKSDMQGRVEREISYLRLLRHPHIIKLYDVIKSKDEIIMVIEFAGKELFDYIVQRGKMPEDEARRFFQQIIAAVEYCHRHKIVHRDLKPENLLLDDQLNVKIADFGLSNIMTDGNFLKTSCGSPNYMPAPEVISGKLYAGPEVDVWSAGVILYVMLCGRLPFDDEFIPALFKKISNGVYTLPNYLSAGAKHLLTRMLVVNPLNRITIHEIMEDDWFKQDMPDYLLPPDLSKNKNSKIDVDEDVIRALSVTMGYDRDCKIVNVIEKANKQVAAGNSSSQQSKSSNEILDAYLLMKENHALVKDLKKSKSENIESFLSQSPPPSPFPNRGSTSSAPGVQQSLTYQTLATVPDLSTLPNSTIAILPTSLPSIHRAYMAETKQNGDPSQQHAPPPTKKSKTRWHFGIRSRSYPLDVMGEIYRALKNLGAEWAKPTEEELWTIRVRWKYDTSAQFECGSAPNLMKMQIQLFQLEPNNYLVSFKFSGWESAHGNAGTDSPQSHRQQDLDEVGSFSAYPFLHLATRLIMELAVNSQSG
Sequence of UniProt Q9UIQ6 (whole entry, looked up): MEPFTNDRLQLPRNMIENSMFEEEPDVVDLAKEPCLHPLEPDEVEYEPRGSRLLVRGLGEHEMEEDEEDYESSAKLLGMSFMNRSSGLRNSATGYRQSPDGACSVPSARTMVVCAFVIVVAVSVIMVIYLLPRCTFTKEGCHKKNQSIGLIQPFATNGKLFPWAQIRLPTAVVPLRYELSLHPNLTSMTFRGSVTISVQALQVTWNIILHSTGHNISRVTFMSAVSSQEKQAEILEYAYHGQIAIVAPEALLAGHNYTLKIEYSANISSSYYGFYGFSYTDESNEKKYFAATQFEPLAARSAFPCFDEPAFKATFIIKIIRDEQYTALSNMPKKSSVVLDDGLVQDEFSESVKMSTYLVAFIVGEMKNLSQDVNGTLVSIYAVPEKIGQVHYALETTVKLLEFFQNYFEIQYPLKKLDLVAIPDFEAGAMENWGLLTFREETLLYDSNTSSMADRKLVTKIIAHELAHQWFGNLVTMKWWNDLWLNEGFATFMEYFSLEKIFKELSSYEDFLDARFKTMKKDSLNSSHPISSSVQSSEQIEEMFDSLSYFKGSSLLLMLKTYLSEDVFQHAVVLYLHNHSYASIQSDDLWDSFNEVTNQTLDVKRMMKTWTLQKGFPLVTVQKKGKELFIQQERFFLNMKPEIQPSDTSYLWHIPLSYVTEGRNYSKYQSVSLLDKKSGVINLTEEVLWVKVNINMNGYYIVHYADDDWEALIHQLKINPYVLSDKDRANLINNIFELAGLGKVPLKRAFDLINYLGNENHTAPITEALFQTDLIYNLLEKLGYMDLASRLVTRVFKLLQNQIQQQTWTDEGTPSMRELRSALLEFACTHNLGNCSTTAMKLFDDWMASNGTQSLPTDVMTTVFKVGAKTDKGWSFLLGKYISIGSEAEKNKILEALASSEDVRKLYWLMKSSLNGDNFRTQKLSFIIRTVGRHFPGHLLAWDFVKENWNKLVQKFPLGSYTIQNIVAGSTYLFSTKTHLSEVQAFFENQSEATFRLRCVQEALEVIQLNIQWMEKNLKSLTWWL
Sequence of UniProt Q7L523 (whole entry, looked up): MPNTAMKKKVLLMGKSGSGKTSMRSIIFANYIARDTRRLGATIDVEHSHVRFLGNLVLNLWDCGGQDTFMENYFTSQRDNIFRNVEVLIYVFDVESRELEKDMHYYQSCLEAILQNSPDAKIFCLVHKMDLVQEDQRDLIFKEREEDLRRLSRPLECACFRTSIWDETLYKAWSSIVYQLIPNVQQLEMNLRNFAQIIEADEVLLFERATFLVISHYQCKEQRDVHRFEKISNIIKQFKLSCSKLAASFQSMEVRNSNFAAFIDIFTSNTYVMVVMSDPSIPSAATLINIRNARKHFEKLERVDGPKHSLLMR

| target | assay | test system | setting | how to read | endpoint | value | Compound |
| --- | --- | --- | --- | --- | --- | --- | --- |
| Glutamate receptor ionotropic, NMDA 1, with GluN2C (Grin1, Rattus norvegicus, UniProt P35439) | – | – | with: glutamate 300 µM | – | Hill slope | 1.47 | N[C@H](CNC(=O)c1ccc(-c2cccc(F)c2F)s1)C(=O)O |
| Ras-related GTP-binding protein A (RRAGA, Homo sapiens, UniProt Q7L523) | thermal stability, binder, thermal proteome profiling | RD, cell lysate | 50 µM, 0.5% DMSO | reference: DMSO vehicle | melting temperature shift | 3.6 °C | O=c1cc(-c2ccc([N+](=O)[O-])cc2)[nH]c2c(-c3ccc(Cl)cc3)c(Cc3ccccc3)nn12 |
| Rhodopsin (RHO, Homo sapiens, UniProt P08100, T17M) | ER retention, immunostaining co-localization, refers to: opsin with calnexin | COS-7 transfected T17M | 0.10 µM | – | Pearson correlation coefficient | 0.71 | CC(=C/C(=O)O)/C=C/C=C(\C)C1C=C2C(C)(C)CCCC2(C)O1 (stereo not drawn) |
| Prostaglandin F2-alpha receptor (PTGFR, Homo sapiens, UniProt P43088) | – | – | 10 µM | – | effect | 50% | CCCC[C@H](NC(=O)[C@H](C)c1c(C)[nH]c2ccc(O)cc12)c1ncc(-c2cc3ccccc3nc2OC)[nH]1 |
| GTPase KRas, GDP-bound (KRAS, Homo sapiens, UniProt P01116, G12D) | affinity selection mass spectrometry | – | mixture library 2, with: protein titration up to 5 µM | lower is stronger binding | lowest bound protein concentration | 0.08 µM | CC[C@H](C)[C@@H]1NC(=O)[C@H](Cc2ccc(O)cc2)NC(=O)[C@H](CC(C)C)NC(=O)[C@@H]2CCCN2C(=O)[C@@H](NC(=O)[C@H](CCCNC(=N)N)NC(=O)[C@H](CCCNC(=N)N)NC(C)=O)CSSC[C@@H](C(=O)N[C@@H](CCCNC(=N)N)C(=O)N[C@@H](CCCNC(=N)N)C(N)=O)NC(=O)[C@H](C(C)C)NC(=O)[C@@H]2CCCN2C(=O)[C@H](CC(=O)O)NC(=O)[C@H](Cc2cc(F)c(F)c(F)c2)NC(=O)[C@H](CO)NC1=O |
| Carbon catabolite-derepressing protein kinase (SNF1, Candida albicans, UniProt P52497) | kinase binding, MIB/MS competition | Candida albicans lysate | 1 µM | reference: DMSO, negative = stronger binding | log2 fold change | -0.04 | Oc1ccccc1-c1n[nH]cc1-c1ccnc2ccccc12 |
| Tyrosine-protein kinase JAK1 (JAK1, Homo sapiens, UniProt P23458) | ATP/ADP probe binding, KiNativ | HEK293T lysate | 0.1 µM, activation loop domain 1 | – | probe labelling inhibition | -28.2% | Cc1cc(-c2ccnc3[nH]cc(F)c23)cc(F)c1[C@@]1(O)[C@H](C)CN(C2CCS(=O)(=O)CC2)C[C@@H]1C |
| Tyrosine-protein phosphatase non-receptor type 1 (PTPN1, Homo sapiens, UniProt P18031) | enzyme activity, inhibitor, Lineweaver-Burk kinetics | – | 1.5 µM | reference: uninhibited control | Km decrease | 6.25% | COC(=O)c1cc(C(C)=NNc2nc(-c3ccc4c(c3)OCCCO4)cs2)ccc1O |
| Amine oxidase copper-containing 3 (Canis lupus familiaris, UniProt A0A8I3MYY3) | inhibitor | dog adipose tissue | 0.037 µM | – | inhibition | 103% | NC/C(=C\F)COc1cccc(Cn2c(=S)[nH]c(=O)c3[nH]cnc32)c1 |
| GUK1 (Homo sapiens, UniProt Q16774, Y81A) | enzyme activity, NADH-coupled | – | 31.25 µM | – | reaction rate | 0.619 s⁻¹ and 2.62 s⁻¹ and 1.68 s⁻¹ | Nc1nc2c(ncn2[C@@H]2O[C@H](COP(=O)(O)O)[C@@H](O)[C@H]2O)c(=O)[nH]1 |
| Transferrin receptor protein 1 (Tfrc, Mus musculus, UniProt Q62351) | flow cytometry | DC2.4 | 24 h, pH 7.4, unit not given | reference: 0 h | surface TFRC expression | 0.661 | CC[C@@H](C)[C@@H](NC(=O)[C@@H](Cc1ccc(O)cc1)NC(=O)[C@H]1CCCN1C(=O)[C@@H](CCCNC(=N)N)NC(=O)[C@H](N)Cc1c[nH]cn1)C(=O)N[C@H](C)C(=O)N[C@H](Cc1c[nH]cn1)C(=O)N[C@H](CCCNC(=N)N)C(=O)N[C@@H](C(=O)N[C@H](Cc1ccc(O)cc1)C(=O)N[C@H](CO)C(=O)N[C@H](Cc1ccccc1)C(N)=O)C(C)C |
| P2X purinoceptor 1 (P2RX1, Homo sapiens, UniProt P51575, D97A) | saturation binding | – | 13 nM | – | specific binding | 2360 corrected cpm and 1360 corrected cpm | Nc1ncnc2c1ncn2[C@@H]1O[C@H](COP(=O)(O)CP(=O)(O)OP(=O)(O)O)[C@@H](O)[C@H]1O |
| Albumin (ALB, Homo sapiens, UniProt P02768) | binding, fluorescence quenching | – | 40 °C | – | Gibbs free energy | -5.96 kcal/mol | COc1cc(-c2[o+]c3cc(O)cc(O)c3cc2O[C@@H]2O[C@H](CO)[C@@H](O)[C@H](O)[C@H]2O)cc(O)c1O |
| uncharacterized protein (Spodoptera exigua, UniProt F1CEY0) | binding, competitor, fluorescence displacement | – | 20 µM, pH 7.4, with: 1-NPN 20 µM | reference: 1-NPN alone | relative fluorescence | 60.3% | CCCCCCCCCCCC(C)=O |
| Leucyl-cystinyl aminopeptidase (LNPEP, Homo sapiens, UniProt Q9UIQ6) | peptide trimming, inhibitor, HPLC | – | up to 50 µM, 1 h, 37 °C, with: 40 µM peptide, 20 nM IRAP | – | trimming of SIINFEKL precursors | no effect | COc1ccc(-c2cc(OCC(=O)N(C)Cc3cccnc3C)nc(-n3nc(C)cc3C)n2)cc1 |
